# Measured values of several laboratories.
# Lines come from different studies, so protocols differ.
# Organism: Staphylococcus aureus
Structure (SMILES),assay,test system,setting,MIC
C#CCNC(=O)[C@H]1NC(=O)[C@H]2NC(=O)[C@H](NC(=O)[C@@H]3NC(=O)[C@H](CC(N)=O)NC(=O)[C@H](NC(=O)[C@@H](CC(C)C)NC)[C@H](O)c4ccc(c(Cl)c4)Oc4cc3cc(c4O[C@@H]3O[C@H](CO)[C@@H](O)[C@H](O)[C@H]3O[C@H]3C[C@](C)(N)[C@H](O)[C@H](C)O3)Oc3ccc(cc3Cl)[C@H]2O)c2ccc(O)c(c2)-c2c(O)cc(O)cc21,,LIM-2 VISA,,1 µM
c1ccc(CCNC2CCCc3c2[nH]c2ccc(C4CCCCC4)cc32)cc1 (stereo not shown),broth microdilution,ATCC 29213,,2 µg/mL
CN[C@@H]1[C@H](O)[C@H](NC)[C@H]2O[C@]3(O)[C@H](O[C@@H]2[C@H]1O)O[C@H](C)C[C@H]3NC(=O)Cc1ccccc1,"microbial growth, broth dilution",8325,,100 µg/mL
CC[C@H]1OC(=O)[C@H](C)[C@@H](OC(=O)Cc2ccccc2)[C@H](C)[C@@H](O[C@@H]2O[C@H](C)C[C@H](N(C)C)[C@H]2O)[C@](C)(OC)C[C@@H](C)C(=O)[C@H](C)[C@@H](O)[C@]1(C)O,,DSM 20231 MSSA,,4 µg/mL
CC[C@H](C)[C@H](N)C(=O)NCC(=O)N[C@@H](CC(C)C)C(=O)N[C@H](CCC(=O)O)C(=O)N[C@H](C(=O)N[C@H]1CCCCNC(=O)[C@H](CC(N)=O)NC(=O)[C@@H](CC(=O)O)NC(=O)[C@H](Cc2c[nH]cn2)NC(=O)[C@@H](Cc2ccccc2)NC(=O)[C@H]([C@@H](C)CC)NC(=O)[C@@H](CCCN)NC1=O)[C@@H](C)CC,,ATCC 29213 methicillin-susceptible,"18 h, 37 °C, 0.3 mM ZnSO4 LB",> 64 µg/mL
CC[C@H](C)[C@@H]1NC(=O)[C@@H]([C@@H](C)O)NC(=O)CNC(=O)[C@H](CC(=O)O)NC(=O)CNC(=O)[C@H](CC(=O)O)NC(=O)CNC(=O)[C@H]2CCCCN2C(=O)[C@@H](NC(=O)[C@H](CC(=O)O)NC(=O)/C=C/CCCCCCCCCC(C)C)CNC(=O)[C@@H]2CCCN2C1=O,broth microdilution,"BR-VRSA strain 880, Mueller-Hinton broth, Mg2+ 10 mg/L","16 h, together with: Ca2+ 10 mM",2 µg/mL
CC[C@H](C)[C@H](NC(=O)[C@H](CC(C)C)NC(=O)[C@H](CCCNC(=N)N)NC(=O)CNC(=O)CNC(=O)[C@H](CCCCN)NC(=O)[C@H](CCCNC(=N)N)NC(=O)[C@H](CC(C)C)NC(=O)[C@H](CC(C)C)NC(=O)[C@H](CCCNC(=N)N)NC(=O)[C@@H](NC(=O)[C@H](CC(C)C)NC(=O)[C@@H](N)CO)[C@@H](C)O)C(=O)NCC(=O)N[C@@H](Cc1c[nH]c2ccccc12)C(=O)N[C@@H](CCCNC(=N)N)C(=O)N[C@@H](Cc1c[nH]c2ccccc12)C(=O)N[C@@H](CCC(=O)O)C(=O)N[C@@H](CCCCN)C(=O)N[C@H](C(=O)N[C@@H](CCCNC(=N)N)C(=O)N[C@@H](CC(N)=O)C(=O)N[C@@H](Cc1c[nH]c2ccccc12)C(=O)N[C@H](C(=O)N[C@@H](CCCNC(=N)N)C(=O)N[C@@H](CCCNC(=N)N)C(=O)N[C@H](C(=O)N[C@H](C(=O)N[C@@H](CCC(=O)O)C(=O)N[C@@H](CCCCN)C(=O)N[C@@H](CCCNC(=N)N)C(=O)N[C@@H](CCCCN)C(=O)N1CCC[C@H]1C(=O)N[C@@H](CC(N)=O)C(=O)N[C@@H](CCCCN)C(=O)O)[C@@H](C)CC)[C@@H](C)CC)[C@@H](C)CC)[C@@H](C)O,broth microdilution,"ATCC 29213, Mueller-Hinton broth","16 to 20 h, 37 °C",17.6 µg/mL
CC[C@H](C)[C@H](NC(=O)[C@@H](CCCNC(=N)N)NC(=O)[C@H](CCCNC(=N)N)NC(=O)[C@H](CC(N)=O)NC(=O)[C@H](Cc1c[nH]c2ccccc12)NC(=O)[C@H](CCCNC(=N)N)NC(=O)[C@@H]1CCCN1C(=O)[C@H](CCCNC(=N)N)NC(=O)[C@@H]1CCCN1C(=O)[C@H](CC(C)C)NC(=O)[C@H](Cc1ccc(O)cc1)NC(=O)[C@@H]1CCCN1C(=O)[C@@H]1CCCN1C(=O)[C@H](CCCCN)NC(=O)[C@H](CC(=O)O)NC(=O)[C@@H](N)C(C)C)C(=O)N[C@@H](Cc1ccc(O)cc1)C(=O)N[C@@H](CC(N)=O)C(=O)N[C@H](CCCNC(=N)N)C(N)=O,broth microdilution,DSM 6247,"18 h, 37 °C, 25% MHB2",64 µg/mL
CCn1c(-c2ccc(-c3ccc(OC)cc3)cc2)c(-c2ccc(-c3ccc(OC)cc3)cc2)n(CC)c1=[Se],"microbial growth, broth dilution",ATCC700699 VISA,"24 h, drug-resistant strain",> 40 µM
CN[C@H](CC(C)C)C(=O)N[C@H]1C(=O)N[C@@H](CC(N)=O)C(=O)N[C@H]2C(=O)N[C@H]3C(=O)N[C@H](C(=O)N[C@H](C(=O)O)c4cc(O)cc(O)c4-c4cc3ccc4O)[C@H](O)c3ccc(c(Cl)c3)Oc3cc2cc(c3O[C@@H]2O[C@H](CO)[C@@H](O)[C@H](O)[C@H]2O[C@H]2C[C@](C)(NCc3ccc(OCc4cn(CC(=O)N[C@H](C(=O)N[C@@H](CCN)C(=O)N[C@H]5CCNC(=O)[C@H]([C@@H](C)O)NC(=O)[C@H](CCN)NC(=O)[C@H](CCN)NC(=O)[C@H](CC(C)C)NC(=O)[C@@H](CC(C)C)NC(=O)[C@H](CCN)NC5=O)[C@@H](C)O)nn4)c(OC)c3)[C@H](O)[C@H](C)O2)Oc2ccc(cc2Cl)[C@H]1O,,LIM-2 VISA,,0.76 µM
CC1COC2=C1C(=O)C(=O)c1c2ccc2c1C(OC(=O)CNC(=O)C(N)CO)CCC2(C)C (mixture of isomers),,GDMCC 1.122,48 h,31 µM
CC[C@H](C)[C@@H]1NC(=O)[C@H](CO)NC(=O)C(C)(CCCCN)NC(=O)[C@@H]2CSSC[C@@H](C(=O)N[C@@H](Cc3ccc(O)cc3)C(N)=O)NC(=O)[C@H](CCCCN)NC(=O)[C@@H]3CSSC[C@H](NC(=O)[C@H](CCCNC(=N)N)NC(=O)C(C)(CC(C)C)NC(=O)[C@H](CC(=O)O)NC(=O)[C@H](CC(=O)O)NC(=O)[C@H](CCC(=O)O)NC(=O)[C@H](CC(N)=O)NC(=O)[C@H](Cc4c[nH]c5ccccc45)NC(=O)C(C)(CC)NC(=O)CNC(=O)[C@H](CC(N)=O)NC(=O)[C@@H](NC(=O)CNC(=O)[C@H](Cc4ccccc4)NC(=O)CN)CSSC[C@H](NC(=O)[C@H](Cc4ccc(O)cc4)NC(=O)CNC(=O)CNC(=O)[C@H](CCCCN)NC(=O)[C@H](Cc4ccc(O)cc4)NC(=O)[C@H]4CCCN4C(=O)[C@@H]4CCCN4C1=O)C(=O)N[C@@H](C)C(=O)N[C@@H](CCCCN)C(=O)N1CCC[C@@H]1C(=O)NCC(=O)N[C@@H](Cc1ccccc1)C(=O)N[C@@H](C(C)C)C(=O)N3)C(=O)N[C@@H](Cc1c[nH]cn1)C(=O)NC(C)(C)C(=O)N[C@@H](Cc1c[nH]cn1)C(=O)N2 (stereo partly shown),,"467, methicillin-resistant mecA, cation-adjusted Mueller Hinton broth","18 h, 37 °C",8 µM
CCCCCCCC[C@@H]1NC(=O)[C@@H](CCCN)NC(=O)[C@@H](NC(=O)[C@@H](NC(=O)[C@@H](CCC(=O)O)NC(=O)[C@H](CC(C)C)NC(=O)[C@@H]2CSC([C@@H](N)[C@@H](C)CC)=N2)[C@@H](C)CC)CCCCNC(=O)[C@H](CC(N)=O)NC(=O)[C@@H](CC(=O)O)NC(=O)[C@H](Cc2c[nH]cn2)NC(=O)[C@@H](Cc2ccccc2)NC1=O,broth microdilution,"ATCC 29213, LB medium",no added Zn2+,0.5 µg/mL
CC[C@H](C)[C@H](NC(=O)[C@@H](CCCNC(=N)N)NC(=O)[C@H](CCCNC(=N)N)NC(=O)[C@@H]1CCCN1C(=O)[C@@H]1CCCN1C(=O)[C@H](CCCNC(=N)N)NC(=O)[C@@H]1CCCN1C(=O)[C@H](CCCNC(=N)N)NC(=O)[C@@H]1CCCN1C(=O)[C@H](CC(C)C)NC(=O)[C@H](Cc1ccc(O)cc1)NC(=O)[C@@H]1CCCN1C(=O)[C@@H]1CCCN1C(=O)[C@H](CCCCN)NC(=O)[C@H](CC(=O)O)NC(=O)[C@@H](N)C(C)C)C(=O)N[C@@H](Cc1ccc(O)c([N+](=O)[O-])c1)C(=O)N[C@@H](CC(N)=O)C(=O)N[C@H](CCCNC(=N)N)C(N)=O,broth microdilution,DSM 6247,"18 h, 37 °C, 25% MHB2",> 128 µg/mL
CC(C)C[C@H](NC(=O)[C@H](CCCCN)NC(=O)[C@H](C)NC(=O)[C@H](CC(C)C)NC(=O)[C@H](CCCCN)NC(=O)[C@H](CCC(N)=O)NC(=O)[C@H](CCCCN)NC(=O)[C@H](CC(C)C)NC(=O)[C@H](CCCCN)NC(=O)[C@H](CCC(N)=O)NC(=O)[C@H](CC(C)C)NC(=O)[C@H](CCCCN)NC(=O)[C@H](C)NC(=O)[C@H](CCCCN)NC(=O)[C@H](CC(C)C)NC(=O)[C@H](CCCCN)NC(=O)[C@H](C)NC(=O)[C@H](CC(C)C)NC(=O)[C@H](CCCCN)NC(=O)[C@H](CCC(N)=O)NC(=O)[C@@H](N)CCCCN)C(N)=O,broth microdilution,ATCC 6538,24 h,> 50 µM
CC(C)C[C@@H]1NC(=O)[C@H](CCCCN)NC(=O)CNC(=O)[C@H]2CCCN2C(=O)[C@H](CCCCN)NC(=O)[C@H](CC(C)C)NC(=O)[C@H](CCCCN)NC(=O)C2CCC=CCCCC(NC(=O)[C@H](CCCCN)NC1=O)C(=O)N[C@@H](CCCCN)C(=O)NC(C(N)=O)CCCC=CCCC(N)C(=O)N[C@@H](CCCCN)C(=O)N2 (stereo partly shown),broth microdilution,"ATCC 29737, Mueller-Hinton broth","18 h, 37 °C",128 µM
N=C(N)NCCC[C@@H]1NC(=O)[C@H](CCCNC(=N)N)NC(=O)[C@@H](CCCNC(=N)N)NC(=O)[C@@H](CCCNC(=N)N)NC(=O)[C@@H](C(c2ccccc2)c2ccccc2)NC(=O)[C@@H](Cc2c[nH]c3ccccc23)NC(=O)[C@@H](C(c2ccccc2)c2ccccc2)NC1=O,,"1195201, multidrug-resistant",,4 µg/mL
COc1ccc(O)c(/C=N/[C@@H]2CCCC[C@@H]2/N=C/c2c(O)ccc3ccc(OC)cc23)c1,"bacterial growth, broth microdilution",vancomycin-intermediate,,> 40 µM
CC(C)C[C@@H]1NC(=O)[C@@H](CC(C)C)NC(=O)[C@H](CCN)NC(=O)[C@@H](NC(=O)[C@H](CCN)NC(=O)[C@@H](NC(=O)CCOCCOCCOCCN=[N+]=[N-])[C@@H](C)O)CCNC(=O)[C@H]([C@@H](C)O)NC(=O)[C@H](CCN)NC(=O)[C@H](CCN)NC1=O,broth microdilution,"MRSA USA300, cation-adjusted Mueller-Hinton broth","20 to 24 h, 37 °C, 0.002% polysorbate 80",> 16 µg/mL

# Repeated from above:
Structure (SMILES),assay,test system,setting,MIC
c1ccc(CCNC2CCCc3c2[nH]c2ccc(C4CCCCC4)cc32)cc1 (stereo not shown),broth microdilution,ATCC 29213,,2 µg/mL
CN[C@@H]1[C@H](O)[C@H](NC)[C@H]2O[C@]3(O)[C@H](O[C@@H]2[C@H]1O)O[C@H](C)C[C@H]3NC(=O)Cc1ccccc1,"microbial growth, broth dilution",8325,,100 µg/mL
CC[C@H]1OC(=O)[C@H](C)[C@@H](OC(=O)Cc2ccccc2)[C@H](C)[C@@H](O[C@@H]2O[C@H](C)C[C@H](N(C)C)[C@H]2O)[C@](C)(OC)C[C@@H](C)C(=O)[C@H](C)[C@@H](O)[C@]1(C)O,,DSM 20231 MSSA,,4 µg/mL
